# Measured values gathered from unrelated publications.
# A part holds a random share of what one study measured. Substitutions count along the parent as printed.

# Block 1 — method: protein binding microarray; molecule type: double-stranded DNA, one strand shown; matrix: in vitro; tested at: not given; baseline: not given; reading: higher = stronger binding
# Target: Histone acetyltransferase KAT6A, both winged helices, GST fusion (KAT6A, Homo sapiens, UniProt Q92794, residues 1-181)
# Setting: 8-mer, flanks averaged, mean of 2 arrays, mostly near background
# Target sequence (chain): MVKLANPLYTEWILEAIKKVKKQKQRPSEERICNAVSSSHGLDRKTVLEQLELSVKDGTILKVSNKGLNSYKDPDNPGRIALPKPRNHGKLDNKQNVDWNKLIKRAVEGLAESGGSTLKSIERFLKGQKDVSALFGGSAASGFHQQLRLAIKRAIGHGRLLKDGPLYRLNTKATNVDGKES
Oligonucleotide,E-score
CGATTGCG,0.264
CATGTAAA,0.0618
ATGTACTG,-0.176
CCCTGCCG,0.166
AACATTGG,-0.24
CTCCGGGC,0.0913
CCTAAAAG,-0.214
AAGGTAGG,-0.206
GTGCGTAA,0.121
AGCCCGTC,0.218
CGCTGATC,0.27

# Block 2 — method: RNA Bind-n-Seq; molecule type: RNA; matrix: in vitro; tested at: not given; baseline: input RNA pool; reading: higher = stronger binding
# Target: RING finger protein unkempt homolog, zinc fingers 1-6, GST-SBP tag (UNK, Homo sapiens, UniProt Q9C0B0, residues 30-357)
# UniProt Q9C0B0, sequence (30-357, looked up): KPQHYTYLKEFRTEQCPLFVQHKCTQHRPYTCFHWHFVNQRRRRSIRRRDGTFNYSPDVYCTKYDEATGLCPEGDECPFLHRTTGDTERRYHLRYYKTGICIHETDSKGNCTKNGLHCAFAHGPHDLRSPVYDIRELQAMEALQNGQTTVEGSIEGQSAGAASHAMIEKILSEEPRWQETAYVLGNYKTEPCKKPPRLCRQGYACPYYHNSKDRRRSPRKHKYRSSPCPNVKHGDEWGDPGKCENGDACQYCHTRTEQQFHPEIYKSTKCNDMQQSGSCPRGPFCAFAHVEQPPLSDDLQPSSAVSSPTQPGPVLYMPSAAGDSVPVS
# Setting: RNA with constant flanks, human and mouse sites, ends assumed
Oligonucleotide,bound/input enrichment [ratio]
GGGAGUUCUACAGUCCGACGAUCUGGCGGUUCAGCAACAUGAAGCAGUGGAAUGUCAACUGGGAGAUCAAGAUGGUCACUGUAGAGUUUGCAGAUGAGGUCCGGUUGUCCUUCAUCUGUACCGAAGUAGACUGCAAGGUGGUCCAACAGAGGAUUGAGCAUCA,0.261
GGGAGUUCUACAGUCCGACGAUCCUGUUACAAGGUUGGUACAUUGUGACCUACGCCUUGGGAAUUUACCACCUAAACCUUUUCAUUGCGUUCCUUUCUCCCAAAGUGGAUCCUUCCUUGAUGGAAGACUCAGAUGACGGCCCUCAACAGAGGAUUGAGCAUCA,0.188
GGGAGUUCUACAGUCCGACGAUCGAAGUCACAGCCAGCCCCUUGGUGGGGCCAGACAGGAAAAAGUCCACAGCGAGCCCAAGUAACAACGUAUAUUCUGGCGGUAGCAUGGCGAGGAGGAAUACGUAUGUGUGUGAGAGGAGCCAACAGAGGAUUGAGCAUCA,0.353
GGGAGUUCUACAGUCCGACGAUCCCUUCUUUCUAGCCCUUCAAAGAUGCUGCCAGUGUUCGCCCUAGAGUUAUUACAAAGCCAGUGCCAAAACCCAGCCAUGGGCUCUUUGCAACCUCCCAGCUGCGCUCAUUCCAGCUGACACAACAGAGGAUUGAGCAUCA,3.15
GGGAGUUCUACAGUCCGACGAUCGAUAUUUUGGGUGUUAAAAAGGAAAUGAUCCGACUAGAUGAAGUCCCCAAUCUGAGUUCCUUAGUAUCCAAUUUCGAUCAGCAGCAGCUCGCUAAUUUCUGCCGGAUUCUGGCUGUCACCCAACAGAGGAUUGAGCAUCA,0.395
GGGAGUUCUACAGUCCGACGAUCGAGCCGCGACACCGCCGGCCUUAGCGCUGCGCUGCCCGGAACCGCCCCUAAAGAGGAGACCCGGGGCGGGGUCGCGCCUCGGGCCUCCGCUGCGGUCCCCGGCAGGCGGGAGCCGGCGCUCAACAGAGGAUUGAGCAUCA,0.44
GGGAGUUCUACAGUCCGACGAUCUAUUGCAAGGACCUUCUUUGCUGCCAGUUACCAUAGGCUGUUUUAAGUUAGAAAACUGAAUAGCAACACUGAAUACUGUAGAGAUGCACUUUGCUCAGUAAUACUUGAGUUGUUGCAAUACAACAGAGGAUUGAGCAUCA,0.392
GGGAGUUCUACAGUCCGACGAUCCCAGAGGAGAUGCUGUCUAUGUACUGUGCUACUCUUUGAUUCUACUUUCCAUUGACCUCACUAGUCCUCAUGUGAAGAAUAAAAUGUCAAAAAGAGAGUUUAUUCGAAAUACGCGCCGUGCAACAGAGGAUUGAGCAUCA,0.109

# Block 3 — target: CCND3, cyclin fold, Cln2 fusion (human); method: yeast growth competition, sequencing; matrix: yeast; setting: weak parent motif; baseline: not given; reading: higher = stronger binding
# Parent: REV3L docking peptide (human); PPVIIKYIIINRF; partner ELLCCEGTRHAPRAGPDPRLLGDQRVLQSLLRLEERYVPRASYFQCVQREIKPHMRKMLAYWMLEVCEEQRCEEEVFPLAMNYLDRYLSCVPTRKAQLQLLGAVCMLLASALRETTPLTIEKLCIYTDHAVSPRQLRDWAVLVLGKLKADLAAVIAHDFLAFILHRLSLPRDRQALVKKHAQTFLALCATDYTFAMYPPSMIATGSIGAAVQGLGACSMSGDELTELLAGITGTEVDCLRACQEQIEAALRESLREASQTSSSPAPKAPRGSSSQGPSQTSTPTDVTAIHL
Substitution,normalised enrichment score
PPVIIKYIAINRF [I9A],0.349
PPVIIKYIIINRA [F13A],0.716
PPVIIKYIIANRF [I10A],0.295
PPVIAKYIIINRF [I5A],-0.336
PPVIIAYIIINRF [K6A],0.219
APVIIKYIIINRF [P1A],0.0289

# Further values, each from its own experiment
Substance,target,test,system,setting,scale,measurement,result
"PhoQ, residues 284 288 289 292 302 303 TLMATV","PhoP, residues 12 14 15 18 19 LHHVQ (Escherichia coli, UniProt P23836)","Sort-seq, measured: YFP reporter",E. coli,"PhoQ-PhoP variant library, with: 10 µM Mg2+","baseline: high Mg2+ state, higher = stronger signaling",fold induction,92.2

# Repeated from above (block 2):
Oligonucleotide,bound/input enrichment [ratio]
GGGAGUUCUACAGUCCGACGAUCGAUAUUUUGGGUGUUAAAAAGGAAAUGAUCCGACUAGAUGAAGUCCCCAAUCUGAGUUCCUUAGUAUCCAAUUUCGAUCAGCAGCAGCUCGCUAAUUUCUGCCGGAUUCUGGCUGUCACCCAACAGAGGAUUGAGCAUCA,0.395
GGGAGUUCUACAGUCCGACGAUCGAGCCGCGACACCGCCGGCCUUAGCGCUGCGCUGCCCGGAACCGCCCCUAAAGAGGAGACCCGGGGCGGGGUCGCGCCUCGGGCCUCCGCUGCGGUCCCCGGCAGGCGGGAGCCGGCGCUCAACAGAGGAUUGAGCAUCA,0.44
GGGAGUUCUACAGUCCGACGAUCUAUUGCAAGGACCUUCUUUGCUGCCAGUUACCAUAGGCUGUUUUAAGUUAGAAAACUGAAUAGCAACACUGAAUACUGUAGAGAUGCACUUUGCUCAGUAAUACUUGAGUUGUUGCAAUACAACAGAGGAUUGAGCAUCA,0.392
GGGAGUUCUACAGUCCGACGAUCCCAGAGGAGAUGCUGUCUAUGUACUGUGCUACUCUUUGAUUCUACUUUCCAUUGACCUCACUAGUCCUCAUGUGAAGAAUAAAAUGUCAAAAAGAGAGUUUAUUCGAAAUACGCGCCGUGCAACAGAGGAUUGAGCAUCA,0.109
